Assay results collected from several papers.
Each numbered part is a random draw from the data of one study; scales do not carry over between parts. Substitutions count along the parent as printed.

Set 1
Target: Fragile X messenger ribonucleoprotein 1, C-terminal low-complexity region (Fmr1, Mus musculus, UniProt P35922)
Technique: RNA Bind-n-Seq
Form: RNA
Sample: in vitro
Concentration: 200 nM
Notes: whole 134-nt RNA, ends assumed
Together with: 150 mM LiCl
Relative to: input library
Direction: higher = stronger binding
Quantity: log2 enrichment
Library: 7-deaza-guanosine replaces G
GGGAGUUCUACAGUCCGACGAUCGUCCUGUGCUACACAUCGUAUGUACCGAAUCGGGAAAAAAAGGGAAAAAAAGGGUGGGAAAGUAUUAUGUUACGCCGUUCGGAUCUGCACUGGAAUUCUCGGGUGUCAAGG: -1.44
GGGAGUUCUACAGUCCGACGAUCGCAGGAAGUAAAAACAAAUGGAAAUGCUUCGGAUAGUGGCAGGGGUGGGGGUUGCUAAGGAAAGGGUGGGAUGGGAGAAAGUAAAGAGUUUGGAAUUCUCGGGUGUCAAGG: 1.25
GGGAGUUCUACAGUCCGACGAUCGUCCUGUGCUACACAUCGUAUGUACCGAAUCGGGAAAAAGGGGAAAAAGGAAAAAGGGAAAGUAUUAUGUUACGCCGUUCGGAUCUGCACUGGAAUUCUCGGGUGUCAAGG: 0.332
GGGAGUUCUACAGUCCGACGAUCCUGUGCUACACAUCGUAUGUACCGAAUCGGGAAAAAAAGGGAAAAAAAGGGUUUUUUUGGGAAAGUAUUAUGUUACGCCGUUCGGAUCUGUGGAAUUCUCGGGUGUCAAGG: -1.67
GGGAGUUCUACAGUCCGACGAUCUUGGGUCCAGACUGCGCCACAGCCUCUCGGGAGACGUGGGCCCUCGGAACCUUUUUAGUGCCGGACUCCGGGCCGCAGGCAGUCCCGCGGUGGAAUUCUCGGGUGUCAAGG: -3.61
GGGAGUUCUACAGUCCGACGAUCCAAGUCCUGUGCUACACAUCGUAUGUACCGAAUCGGGUUUGGGUUUUUGGGUGGGAAAGUAUUAUGUUACGCCGUUCGGAUCUGCACUUCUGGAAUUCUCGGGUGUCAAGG: -1.35
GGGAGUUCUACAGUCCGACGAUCCUGUGCUACACAUCGUAUGUACCGAAUCGGGGAAAAAGGGGAAAAAGGGGUUUUUUUGGGGAAAGUAUUAUGUUACGCCGUUCGGAUCUGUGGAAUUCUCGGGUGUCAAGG: -0.502
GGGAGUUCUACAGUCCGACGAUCUCAAGUCCUGUGCUACACAUCGUAUGUACCGAAUCGGGGUUUGGUUUGGGUUUGGAAAGUAUUAUGUUACGCCGUUCGGAUCUGCACUUCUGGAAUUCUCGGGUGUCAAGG: -1.42
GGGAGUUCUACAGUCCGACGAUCGUCCUGUGCUACACAUCGUAUGUACCGAAUCAAAUUUAAACCCCCAAAUUUUUUUAAAAAAGUAUUAUGUUACGCCGUUCGGAUCUGCACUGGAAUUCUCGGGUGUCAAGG: 0.542
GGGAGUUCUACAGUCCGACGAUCAGUCCUGUGCUACACAUCGUAUGUACCGAAUCGGGGCCCCGGGCCCCGGGGCCCCGGAAAGUAUUAUGUUACGCCGUUCGGAUCUGCACUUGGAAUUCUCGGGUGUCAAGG: 0.455
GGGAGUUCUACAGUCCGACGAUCAGUCCUGUGCUACACAUCGUAUGUACCGAAUCGGGUUUUGGGGUUUUGGUUUUGGGGAAAGUAUUAUGUUACGCCGUUCGGAUCUGCACUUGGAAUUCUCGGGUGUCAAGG: -1.77

Set 2
Target: CCNF, cyclin fold, Cln2 fusion (human)
Technique: yeast growth competition, sequencing
Sample: yeast
Notes: strong parent motif
Relative to: not given
Direction: higher = stronger binding
Quantity: normalised enrichment score
Starting sequence: BRCA2 docking peptide (human); CKKRRALDFLSRL
L10A: 2.65
L13A: 2.84
R5K F9L: 1.39
C1A: 1.85
R12A: 4.01
K3A: 5.46
L7A: 2.69

Set 3
Target: ABI1, truncated, D143A, DHFR fusion (Arabidopsis thaliana)
Technique: DHFR PCA, deep sequencing
Sample: yeast
Notes: methotrexate growth selection, single substitutions
Together with: (+)-ABA 710 µM
Relative to: wild-type fitted maximum
Direction: higher = stronger binding
Quantity: relative binding score
Starting sequence: PYL1, truncated, DHFR fusion (Arabidopsis thaliana); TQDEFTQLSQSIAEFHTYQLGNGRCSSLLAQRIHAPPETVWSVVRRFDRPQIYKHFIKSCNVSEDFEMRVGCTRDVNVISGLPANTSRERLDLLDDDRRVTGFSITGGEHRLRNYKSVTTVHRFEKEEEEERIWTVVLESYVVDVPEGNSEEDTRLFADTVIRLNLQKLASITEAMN
K116C: 90.6%
I133P: 109%
R123Y: 98.8%
S87C: 78.6%
Y141D: -12.1%
K168M: 94.6%
R46A: 100%
G108D: 50.1%
Q10D: 106%
T73K: 96.5%
V70H: 88.5%
A170I: 32%
D75H: 100%
E152A: 101%

Set 4
Target: Interferon regulatory factor 5, full length, phosphomimetic (IRF5, Homo sapiens, UniProt Q13568-2, residues 1-514, K96S/S451D/S453D/S456D/S462D)
Technique: protein-binding microarray
Form: double-stranded DNA, one strand shown
Sample: in vitro
Concentration: 250 nM
Notes: 60-bp whole probe
Together with: salmon DNA 0.4 mg/ml
Relative to: random background probes
Direction: higher = stronger binding
Quantity: log fluorescence
Constant ends, left off below: GCCTAGCAC … GTCTTGATTCGCTTGACGCTGCTG
GACCATATCAGTTTCGAGACGTGCTAG: 5.91 z-score
GCGCCTGTAGCCCCTCCAGGGTGCTAG: -0.843 z-score
TCACTTCTATAGGCTAGAACTGTGCTA: 0.175 z-score
TTAGTTCTCCTACTGCTTTAGTGCTAG: 0.453 z-score
AAACTTACCTCACTCGTTAAGTGCTAG: 0.426 z-score
TCACATCTCTGTCCGTGACTGTGCTAG: 0.228 z-score
GACGGTCTCGGTCTCCGGACGTGCTAG: 0.289 z-score
TTAGATTTCAGTTCCGACTAGTGCTAG: 2.2 z-score
TTAGGTATCGGTATGGGTTAGTGCTAG: 7.25 z-score
TTAGGTATCAGTCTCGGTTAGTGCTAG: 2.39 z-score
GACGATTTCGGCACTGGAGACGTGCTA: 2.03 z-score
TTTGATATCGGGTATCGATTAGTGCTA: 6.93 z-score
AGGACCATCTCATATAAATAGGTGCTA: -0.391 z-score
ATGTTCACTGTGTACCGTCTGTGCTAG: -0.138 z-score
TTAGGTATGGGGTTTCGGTTAGTGCTA: 6.52 z-score
GATGATTTCAGACTGGAGACGTGCTAG: 0.245 z-score
TTTGGTTTCGACACTGGGTTAGTGCTA: 8.14 z-score
TTCGGTATCGGGTATCGGTTAGTGCTA: 7.73 z-score
TCATCTTCACATATAATACTGTGCTAG: 0.858 z-score
TTAGTTATCGACTTTCGGTTAGTGCTA: 10.4 z-score
GACGGTATCGGGACTCGGGACGTGCTA: 1.22 z-score
TCATATTTGCAACATCCCACTGTGCTA: 0.301 z-score
TTAGGACTGGGACTGGGTTGGTGCTAG: -0.478 z-score
TTAGGTATCGGACTGGCTTAGTGCTAG: 1.32 z-score
TCAATTGTGCAATCTTAAACTGTGCTA: 0.536 z-score

Set 5
Target: Histone acetyltransferase KAT6A, winged helix 2, GST fusion (KAT6A, Homo sapiens, UniProt Q92794, residues 85-181)
Technique: protein binding microarray
Form: double-stranded DNA, one strand shown
Sample: in vitro
Concentration: not given
Notes: 8-mer, flanks averaged, mean of 2 arrays, mostly near background
Relative to: not given
Direction: higher = stronger binding
Quantity: E-score
Target sequence (chain): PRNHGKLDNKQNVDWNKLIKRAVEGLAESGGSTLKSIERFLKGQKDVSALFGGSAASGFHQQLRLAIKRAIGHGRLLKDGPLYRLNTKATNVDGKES
ATTTGTGG: 0.0198
CGGGTAAC: 0.0658
GGAGTCTA: -0.231
ACAGCCCG: -0.00623
GAACGAGC: 0.069
GGTTGCAC: -0.0101
AGAGCCTA: -0.0574
AGATTGAG: 0.0493
AAAGGGTA: -0.0875
AGAGCTTA: 0.0275
CCCTACCC: -0.0843
GATAAAAC: 0.196
TCCGCTAA: 0.102
AACGCCCA: 0.0835
CACCGGCA: 0.124
CCCTCTAC: -0.117
TACGTCTA: -0.202
CAAGTACC: -0.194
GCGCGTCC: -0.0259
CGCCCAAG: -0.0198
CGCATGAC: -0.0221
CGTTTAGA: -0.047
CAGTCGGG: 0.133
ATCATAGG: -0.0404
AACCCGAG: 0.149
